Experimental data from different studies.
A part holds a random share of what one study measured.

Block 1
Target: Histone acetyltransferase KAT6A, winged helix 1, GST fusion (KAT6A, Homo sapiens, UniProt Q92794, residues 1-85)
Technique: protein binding microarray
Molecule type: double-stranded DNA, one strand shown
Medium: in vitro
Concentration: not given
Notes: 8-mer, flanks averaged, mean of 2 arrays, mostly near background
Baseline: not given
Reading: higher = stronger binding
Residues (chain): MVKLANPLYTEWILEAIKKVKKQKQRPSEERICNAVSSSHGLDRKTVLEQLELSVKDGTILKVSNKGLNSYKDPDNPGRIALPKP
Oligonucleotide	E-score
AAGTCCTG	-0.272
GAACTGAC	-0.045
CACCACTC	-0.0479
AAGTCTGT	-0.183

Block 2
Target: Centromere-binding protein 1, full length, His-tagged (CBF1, Saccharomyces cerevisiae, UniProt P17106, residues 1-351)
Sequence of UniProt P17106 (whole entry, looked up): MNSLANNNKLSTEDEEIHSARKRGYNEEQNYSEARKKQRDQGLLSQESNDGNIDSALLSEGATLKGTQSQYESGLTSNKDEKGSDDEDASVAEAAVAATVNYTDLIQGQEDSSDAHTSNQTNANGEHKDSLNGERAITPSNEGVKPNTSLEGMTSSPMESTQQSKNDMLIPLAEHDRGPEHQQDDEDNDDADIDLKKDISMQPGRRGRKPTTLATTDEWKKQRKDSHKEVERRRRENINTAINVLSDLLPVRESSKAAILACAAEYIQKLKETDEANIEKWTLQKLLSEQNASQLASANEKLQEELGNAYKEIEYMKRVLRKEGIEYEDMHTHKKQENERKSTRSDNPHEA
Technique: competition protein-binding microarray
Molecule type: double-stranded DNA, one strand shown
Medium: in vitro
Concentration: 2 µM
Notes: whole 60-bp probe, lowest competitor level
Together with: Pho4 competitor, 0.05 µM
Reading: higher = stronger binding
Constant ends, left off below: … GTCTTGATTCGCTTGACGCTGCTG
Oligonucleotide	fluorescence intensity
ACAAAAGCCTGAATTGACATGACAACGACAATAGGG	73 a.u.
CTAACGAAGGTTTGTCACCGAACTTACAAGCCAAGT	68 a.u.
AAGGTAAGCTATCACCACGTGTTGGTGATTTAAGTT	1130 a.u.
CGTCCTAGTGATTTTCACGTGACCTCCATGAGGAAG	8740 a.u.
TGTTGAAGACCTCACTTCGTGACGGTTCGGCTTCGA	65.9 a.u.
AAATTACTAAGTTGTTCGGTGGGTGACGCCGTATGA	53.2 a.u.

Block 3
Target: RNA binding protein fox-1 homolog 2, RRM domain, GST-SBP tag (RBFOX2, Homo sapiens, UniProt O43251-10, residues 100-194)
Technique: RNA Bind-n-Seq
Molecule type: RNA
Medium: in vitro
Concentration: 365 nM
Notes: natural RNA segment, single round, ends assumed
Baseline: no-protein control
Reading: higher = stronger binding
Residues (chain): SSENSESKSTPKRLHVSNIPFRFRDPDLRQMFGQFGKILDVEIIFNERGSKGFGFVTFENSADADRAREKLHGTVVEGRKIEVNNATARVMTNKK
Oligonucleotide	RBNS enrichment (R)
GGGAGUUCUACAGUCCGACGAUCGAUUGUAAGCAGGGAGGAAACCUCUGCAGCUCAUUCUGCCACUGCAAAGCUGGUGUAGCCAUGCUGGUGAGAAAAAUCCUGUUCAACCUGGGUUCUCCCAGUUACGGAAAUGGAAUUCUCGGGUGCCAA	0.232
GGGAGUUCUACAGUCCGACGAUCAACAACUCCUUGCCCCCAGGGCUCUGGCUGCCAGGGCCUACUGCUGCUUUCCUGGGAAGCCGCAAGUUCAGUCAGUGGGGCACACAGGCUUUGUUUCAGCCUGGAAGUGAUGGAAUUCUCGGGUGCCAA	0.271
GGGAGUUCUACAGUCCGACGAUCCUGGGGCUGGGGCUGCCCACGUGUGGCCUCCGCUGGCUCUGCCUGCUCCUGCAACAGUGCGGUCCCUGCCCGGAGAACUCAGGAGGCCUGCAGAAGAGAACUGAUUGGUGUGGAAUUCUCGGGUGCCAA	0.714
GGGAGUUCUACAGUCCGACGAUCCCAUUCUGUGCAGGCUGCAGUGGCUCCCCUGCCCAGCCUGCUCUCCCUAACCCCUUGUCCGCAAGGGGUGAUGGCCGGCUGGUUGUGGGCACUGGCGGUCAAGUGUGGAGUGGAAUUCUCGGGUGCCAA	0.236

Single results of other studies
Molecule	target	test	system	conditions	scale	endpoint	result
PhoQ, residues 284 288 289 292 302 303 TTCLQL	PhoP, residues 12 14 15 18 19 SGWQI (Escherichia coli, UniProt P23836)	Sort-seq, measured: YFP reporter	E. coli	PhoQ-PhoP variant library, together with: 10 µM Mg2+	baseline: high Mg2+ state, higher = stronger signaling	fold induction	3.04

Some of these lines once more (block 3):
Oligonucleotide	RBNS enrichment (R)
GGGAGUUCUACAGUCCGACGAUCGAUUGUAAGCAGGGAGGAAACCUCUGCAGCUCAUUCUGCCACUGCAAAGCUGGUGUAGCCAUGCUGGUGAGAAAAAUCCUGUUCAACCUGGGUUCUCCCAGUUACGGAAAUGGAAUUCUCGGGUGCCAA	0.232
